Measured values of several laboratories.
A part holds a random share of what one study measured.

Sample 1
Target: RING finger protein unkempt homolog, zinc fingers 1-6, GST-SBP tag (UNK, Homo sapiens, UniProt Q9C0B0, residues 30-357)
Technique: RNA Bind-n-Seq
Molecule type: RNA
Sample: in vitro
Concentration: not given
Setting: RNA with constant flanks, human-mouse chimeric sites, ends assumed
Reference: input RNA pool
Reading: higher = stronger binding
Shared flanks, not repeated: GGGAGUUCUACAGUCCGACGAUC … CAACAGAGGAUUGAGCAUCA
Target sequence (chain): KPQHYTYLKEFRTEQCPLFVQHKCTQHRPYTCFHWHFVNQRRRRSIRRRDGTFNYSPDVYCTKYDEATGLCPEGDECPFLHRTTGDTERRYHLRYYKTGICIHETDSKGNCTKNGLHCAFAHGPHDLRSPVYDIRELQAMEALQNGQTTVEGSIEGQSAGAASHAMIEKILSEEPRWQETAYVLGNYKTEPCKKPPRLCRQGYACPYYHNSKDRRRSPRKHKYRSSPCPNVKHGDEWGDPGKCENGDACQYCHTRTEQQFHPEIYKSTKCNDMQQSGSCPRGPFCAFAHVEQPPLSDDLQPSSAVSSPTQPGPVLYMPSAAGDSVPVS
| Strand | bound/input enrichment [ratio] |
| --- | --- |
| CGCUUGGAUGAGGCGGGUGUCACAGAUGAAGUGCUAGAUUCUGCCAUGCAAGCCUUCCUUCUGGAGGUCAUUGUUAAACAUGGGGAGCCAGCCCCUUAUUUAUGUAACAAAGAUCCGUUU | 0.133 |
| UUUGUAUUUAUGCUAAGCACACGUGCUGGUGGUCUGGGCAUCAAUCUUGCAACUGCUGAUGUAGUCAUUUUAUAUGACUCAGAUUGGAAUCCCCAAGUAGAUCUUCAGGCUAUGGACCGU | 0.238 |
| ACAGUUAUAUUGUUGAGGUUUGUAUUUAUAUAUUCUUGUAGUGUCUGCUUGCCUGUGACUUCUGGUAAAAUAAAAUAAGCCUUUGAAAAUAUUUUAGCAUGGUAUUUAACAUUUUCUAAA | 1.94 |
| UGUGAACUGUCUCUUGAGAUCUAAAAAAAACAUGAUUUUUCCUGGCACAUAUUCCAAAGCAAAGACUUUGUUGCCUGCUGCUUAUUGUCUAAUUUACAGGGAUAUUUAAUUUUGUAAGGU | 0.116 |
| UGUAGUUUCUUGAUUUAUCAUUUUUCUCUUUUCUUUCUUUCCUUUAGGAAAAGCCUAAAGAUUAGGUUGUAAGAAAAACAGAAGCCAUGUUUCGAAGGAAGACCUGUCAGGUAUUUCGUC | 0.133 |
| CUGGCACUCUAUCAGAUAUAUUAAUUUUUAAAUGUAGAUGUAAUUUUAAAAAUGAAUGGCUACUUUACACGUUUAACUAGGCUCUUACUAUAUAUGUGUACAUAUGUAUAUAUAUAUAUA | 7.51 |
| AUGGAACAUUUCGAUGCGUCACUCAGUACCUAUUUCAAGGCCUUCCUGGGCCCCCGAGAUACUAGAGUCAAAGGAUGGUUCCUCCUGGACAAUUACAUCCCUACGUUUGUCUGUUCUGUU | 0.0925 |
| GCUCUUGGGAAUGUAAUCAGCGCCUUGGGAGACAAGAGCAAGAGAGCCACCCAUGUCCCUUACAGAGACUCUAAGCUGACAAGACUCUUGCAGGAUUCCCUCGGGGGUAACAGCCAAACC | 0.165 |
| GGACAUCUGUCAAAUUGUUAUGUUCCUGUGAAACAAGUGAACACUCUGAUACACUUCAUCUGCUUGUACAUUUAACUGAUAGAGAAAUGUAAAUAUGUUAAUCCAAGCAAUGUGUCACUU | 0.343 |
| UUCAAAGAAAAGGGCAGCUGUGUCAUUACUUGGGAGACUCUGGGGGAGGGAAAUUCUGUUCUUUUGUUUUUAGUUUUCCCAAAUGAAGCCAAAGUGUGUGUUGAAGAACUGAGAAAAAAU | 0.328 |
| GUUGCCAGCUUCCGGUUCCGUUGGGCUAGCAAGCUCCCUGAGCUACGUGUCUCUACGCUCUCAAUCCCGGUUGGGUAAAACAUGGAUCAGGUAAUGCAGUUUGUGGAGCCCAGCCGGCAG | 0.0734 |

Sample 2
Target: Prothrombin, mature alpha-thrombin (F2, Homo sapiens, UniProt P00734)
Technique: aptamer microarray, sandwich
Molecule type: DNA with 2'F-ANA
Sample: in vitro
Concentration: 200 nM
Setting: whole 15-mer aptamer, many near background
Added: Cy3 exosite-II aptamer, 400 nM
Reading: higher = stronger binding
Strand: GGTTGGTGTGGTTGG
| Modification | mean fluorescence intensity |
| --- | --- |
| 2'F-ANA at 2 3 9 10 11 12 13 14 15 | 245 a.u. |
| 2'F-ANA at 2 3 5 6 8 9 10 14 | 49.5 a.u. |
| 2'F-ANA at 1 2 3 4 5 6 8 10 11 13 14 15 | 51.5 a.u. |
| 2'F-ANA at 4 5 7 11 13 15 | 49.9 a.u. |
| 2'F-ANA at 9 11 12 13 14 | 215 a.u. |
| 2'F-ANA at 1 2 4 5 7 10 11 14 15 | 47.2 a.u. |
| 2'F-ANA at 2 3 4 8 9 10 11 13 15 | 161 a.u. |
| 2'F-ANA at 2 3 6 7 9 12 14 | 368 a.u. |
| 2'F-ANA at 1 2 3 5 7 8 10 15 | 47.3 a.u. |
| 2'F-ANA at 1 3 5 6 7 9 11 15 | 52.5 a.u. |
| 2'F-ANA at 3 4 9 10 15 | 307 a.u. |
| 2'F-ANA at 2 3 5 7 14 15 | 52.3 a.u. |
| 2'F-ANA at 1 2 4 6 10 11 | 88.4 a.u. |
| 2'F-ANA at 3 5 6 8 10 12 14 | 48.1 a.u. |
| 2'F-ANA at 1 2 8 9 10 12 14 | 214 a.u. |
| 2'F-ANA at 1 3 4 9 | 216 a.u. |
| 2'F-ANA at 3 4 5 8 9 10 12 14 | 59.3 a.u. |
| 2'F-ANA at 1 2 4 5 6 9 10 11 14 15 | 49.2 a.u. |
| 2'F-ANA at 2 3 4 5 8 9 12 13 14 15 | 50.2 a.u. |

Sample 3
Target: Fragile X messenger ribonucleoprotein 1, C-terminal low-complexity region (Fmr1, Mus musculus, UniProt P35922)
Technique: RNA Bind-n-Seq
Molecule type: RNA
Sample: in vitro
Concentration: 200 nM
Setting: whole 134-nt RNA, ends assumed
Added: 150 mM LiCl
Reference: input library
Reading: higher = stronger binding
All molecules: 7-deaza-guanosine replaces G
Shared flanks, not repeated: GGGAGUUCUACAGUCCGACGAUC … UGGAAUUCUCGGGUGUCAAGG
| Strand | log2 enrichment |
| --- | --- |
| UGGCCCUGGUGGCAUGCGGGGAGGAAGAGGUGGCCUCAUGGAUCUUGGUGGUCCCGGUGGAAUGUUCAGAGGUGGCCGUGGUGGAGACAG | -0.261 |
| UGGCCCUGGUGGCAUGCGGGGAGGAAGAGGUGGCCUCAUGGAUCGUGGUGGUCCCGGUGGAAUGGUCAGAGGUGGCCGUGGUGGAGACAG | -0.176 |
| GCAGGAAGUAAAAACAAAUGGAAAUGCUUCGGAUAGUGGCAGGGGUGGGGGUUGCUAAGGAAAGGGUCGGAUGGGAGUGGGUAAAGAGUU | 1.22 |
| GCAGGAAGUAAAAACAAAUGGAAAUGCUUCGGAUAGUGCCAGGGGUGGGGGUUGCUAAGGAAAGGGUGGGAUGGGAGUGGGUAAAGAGUU | 1.62 |
| ACCAUGCAGGUGGGCAUCUUUGGGAAGUGGGGCAAGGGGGGGAUAGGGAGGGGGGUAACACUUUGGGAACAGGUGGUCCCAGGUGGUUUC | 1.33 |
| ACCAUGCAGGUGGGCAUCUUUGGGAAGUGGGGCAAGGGGGGGAUAGGGAGGGGGGUAACACUUUGGGAACAGGUGCUCCCAGGUCGUUUC | 1.38 |
| UCCUCAAGUCCUGUGCUACACAUCGUAUGUACCGAAUCGGAGGGAGGAGGGGAAAGUAUUAUGUUACGCCGUUCGGAUCUGCACUUCCAG | -0.408 |
| CAAGUCCUGUGCUACACAUCGUAUGUACCGAAUCGGGGUUUUGGUUUUGGUUUUGGAAAGUAUUAUGUUACGCCGUUCGGAUCUGCACUU | -2.04 |
| GAGGAGCUGCUGCUGGAGCCCGAGCCGGAGCCCGAGCCCGAAGAGGAGCCGCCCCGGCCCCGCGCCCCCCCGGGAGCUCCGGGCCCUGGG | -1.25 |
| UAACUUUAGAGGAGGAUCUGAUGGAUAUGGCAGUGGACGUGGAUUUGGGGAUGGCUAUAAUGGGUAUGGAGGAGGCCCUGGAGGUGGCAA | 0.382 |
| UAACUUUAGAGGAGGAUCUGAUGGAUAUGGCAGUGGACAUGGAUUUGGGGAUGGCUAUAAUGGGUAUGGAGGAGGACCUGGAGGUGGCAA | 0.356 |

Sample 4
Target: RNA binding protein fox-1 homolog 2, RRM domain, GST-SBP tag (RBFOX2, Homo sapiens, UniProt O43251-10, residues 100-194)
Technique: RNA Bind-n-Seq
Molecule type: RNA
Sample: in vitro
Concentration: 365 nM
Setting: natural RNA segment, single round, ends assumed
Reference: no-protein control
Reading: higher = stronger binding
Shared flanks, not repeated: GGGAGUUCUACAGUCCGACGAUC … UGGAAUUCUCGGGUGCCAA
Construct (chain): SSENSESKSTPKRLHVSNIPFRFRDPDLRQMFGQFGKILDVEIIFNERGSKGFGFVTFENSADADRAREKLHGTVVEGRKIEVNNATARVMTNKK
| Strand | RBNS enrichment (R) |
| --- | --- |
| UGCAGCCAAACCUGAUGACCUGCAUUCAAUUCCUGGGUCCCACGGGACAGAGGGAGAGAGUCCACUACUGAAAGGAACGCUCAAACCUCCUCACACAGGUCCUUGUGCCU | 0.217 |
| AUGAGUACUAUAUUGCAAUAAAAUGUAGUGAUAUAAUUAACCAGCCAUUAAAAAUUUACUUCUACAGUACAGUGUCAAUUGAGUUUAUAUAUUAGGUACUUGCAUACUUU | 0.55 |
| GCCUGCAGUCAGUUAUUAUGUAUAGGAGGUGAGCUAGUUAACAAACUUGUACCACAAAACAAUAUCGCUUUAACUUUUCUAAAGCCAAAUUUCCCAUGUAAGCUGCAGUU | 0.33 |
| AAUAAGACUUUCCCUGCCAACCAGGACAGCCUGGACCAUGCCUGCCUGUUCACUGUUUCAGGCUGCUCAGCACACAUUGGGAGAGGUGGCCAUAUCCCAGAACACUACCU | 1.43 |
| UGAGCUCUCAGUUGUACCUCCAACCCCUUUCUCCGGGACCAGCUAUGUGGUCCAGCUGUUUUAAUUGAGUGCUUUUAAAUGAAACCUGACUGCCAUCUUUCUUUUGUGAC | 0.668 |
| CUUAAAAGUCCUACGUGACUGAUUUUAAACAUUGUGAUAAAAUUAAUUUUCAGUAGAAUAGUUGAAUGUGUUAAGAUAGGAUUUUAUGUUAGAGAUACCAGAAUGCUGGU | 1.16 |
| ACUUGAAUAACGUCUUCUCUUUACUAUUACACACGAGGCAGCCUAUUAACCUGUGUCUUAGAAUUGUUGUAUAUAGUUCUUUUAAUAUCCAUAGGGUAUAUUUUUGAAUU | 0.554 |
| CUCUCGAGUGUGCUGGUGUGCUGUGUAGGCUCCCGGGCCACAGUGGCUGUGGAGAAGCCCAGGCCCUUAGAAGAAUCACUGUAUUUGCCACCUGUACCUCACGGCUGCUA | 0.735 |
| CCCUGUGCUCCGUUCCUCAGCCGUUUGGACAGGGAGCUCCGCUGUCACCAAGGAGCCCAUGUGAGACACACUGCUGUGACUGCCUCUUGUUAAUGUCAGCAUCACCUCAU | 0.682 |
| GCUUUUUCUCUAUUUAGACUGUUUUUGUACUUUACUAAUCUUUAAACUAUCAGGAAAAAAACCAAAACUUUAUACCAAUGAUUUAGUAAUUUUGAGGCAUAGGGUAGCUU | 0.779 |
| GGCAAAGUGCAGUGCGUGUUUGUGGUCAAGAUGAGGGUGUUAAGGGAUGUUGGAGUCUGGUGUAGAGACAGGCAGGUUGCAGAAAAGCACAGAUCUUUGCCAGUGGUUGG | 1.8 |
| GUGCAAAUGUUAAGUUGGAUAUCACACUGUAUAUUUGCUGAGUCUCUUUUCCUAUAGGUUUGCAGAGCAUGUCUGCAGUUUCUCGGUUGUUAUAGAUUUCCUACCUAACC | 2.95 |

Excerpt of the above (sample 2):
| Modification | mean fluorescence intensity |
| --- | --- |
| 2'F-ANA at 3 5 6 8 10 12 14 | 48.1 a.u. |
| 2'F-ANA at 2 3 4 5 8 9 12 13 14 15 | 50.2 a.u. |
| 2'F-ANA at 2 3 5 6 8 9 10 14 | 49.5 a.u. |
| 2'F-ANA at 3 4 5 8 9 10 12 14 | 59.3 a.u. |
| 2'F-ANA at 1 2 3 4 5 6 8 10 11 13 14 15 | 51.5 a.u. |
| 2'F-ANA at 1 3 5 6 7 9 11 15 | 52.5 a.u. |
